Experimental data gathered from unrelated publications.
Numbered parts are unrelated; each lists some results of a single study. Substitutions count along the parent as printed.

Set 1
Target: RING finger protein unkempt homolog, zinc fingers 1-6, SBP tag (UNK, Homo sapiens, UniProt Q9C0B0, residues 30-357)
Chain of UniProt Q9C0B0 (30-357, looked up): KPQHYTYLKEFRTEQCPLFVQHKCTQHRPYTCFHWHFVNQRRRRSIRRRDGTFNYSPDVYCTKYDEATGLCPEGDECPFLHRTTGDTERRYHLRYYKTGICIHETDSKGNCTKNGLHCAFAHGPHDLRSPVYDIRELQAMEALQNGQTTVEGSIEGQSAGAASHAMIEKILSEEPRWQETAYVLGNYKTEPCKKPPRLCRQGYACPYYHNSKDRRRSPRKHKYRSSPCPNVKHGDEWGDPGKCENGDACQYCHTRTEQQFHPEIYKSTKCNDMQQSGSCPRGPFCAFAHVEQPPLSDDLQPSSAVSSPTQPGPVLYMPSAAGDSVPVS
Method: RNA Bind-n-Seq
Molecule type: RNA
Medium: in vitro
Concentration: 100 nM
Setting: RNA with constant flanks, vertebrate orthologous sites, ends assumed
Baseline: input RNA pool
Reading: higher = stronger binding
| Strand | bound/input enrichment [ratio] |
| --- | --- |
| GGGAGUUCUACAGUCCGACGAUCCCAAACUGAUGCUACUGUAUAACAAUUAAAAUGGGUUCUCCUAUUUCUUCAAUGAGGGGGAAAAUGCCUUACACGUCUGAUAAUGCCAUUCUGCUUUUGCUUUCUAUUUUCACAUAAGCACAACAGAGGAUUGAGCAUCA | 0.458 |
| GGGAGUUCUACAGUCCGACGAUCGGAAAGUUACAGACCAGACUCUGAAAGCAGGAGCACAGGAUCCUGGUUGUCAUCAUCUUUGAGGAACAGAUGUACGCCUCUCUUUUCCAGAAGAAGAAGAGAAGGAAGAGAUGAGUCUGCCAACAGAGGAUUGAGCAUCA | 0.325 |
| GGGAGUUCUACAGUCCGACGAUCUACCUGUGUACAUUUCAUUCACAACACUGAAUGCAAAGUAGCGAUUUCCAUAGUCACAAAAUAAUGUAGCUUUAGGGCGAUAUCACCAUGGGUUUUACUCAUGUGCAGGUCUUGAAAAUGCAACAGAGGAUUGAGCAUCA | 0.583 |
| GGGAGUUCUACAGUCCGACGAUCGUUGAGCCAUGACCCCUAUAGGUUAGGUCAUGAUGCUUACAGGUUAGGACAGGACCCUUAUAGAUUAGGCCAUGAUCCCUACAGACUAACUCCUGAUCCCUACAGGAUGUCACCUAGACCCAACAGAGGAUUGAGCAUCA | 0.525 |
| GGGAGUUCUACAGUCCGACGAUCCUUCCUCCAACUUCGAUUUUCAGGUUGUAGCUGAUCCUUUUUUUUUCCCCCCAUUUAAACUGCUCUUUUGCUUUCUCCCUCCACUUCAAAUACACAAGUUCUUCCCUUUUGCAUCUUUGUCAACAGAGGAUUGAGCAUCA | 1.26 |
| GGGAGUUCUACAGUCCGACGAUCGGGACGCUUUGACGUAAAAAUUGAAGUUAAGAGCUGAUCACAAGCACAGAUCUUUCCCACUAGCCAUUUAAAAAAGUUAAAAAAGAUACAAAAACCUACUAGUCUUGAACAAACCGUAAUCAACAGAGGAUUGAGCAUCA | 2.64 |
| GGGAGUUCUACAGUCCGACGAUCAGCAAAUAAUAAUAAUAAUAAUUCUAGUUUUAACUAGCAACAGUGAUUACUAGUCUGUGCUAGAAAGGAUCAGUUACACCUUUCAAGUUUUCUCCUUUGUCUGCUACCAGAAACCAAUCACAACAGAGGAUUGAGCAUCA | 1.04 |
| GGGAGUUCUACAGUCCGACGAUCAAAUCUACUUCAUGCCUUGGACUCCAUACCGAACAGACACUCUAAUCGAGUACUCCUCCUUGGAUGACUUUCAAAAUGCCCGUCAAACCAUCACCUACAAGCUGCCGCACCGGGUGGACGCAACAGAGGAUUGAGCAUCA | 0.364 |

Set 2
Target: Centromere-binding protein 1, full length, N-terminal tag (CBF1, Saccharomyces cerevisiae, UniProt P17106, residues 1-351)
Chain of UniProt P17106 (whole entry, looked up): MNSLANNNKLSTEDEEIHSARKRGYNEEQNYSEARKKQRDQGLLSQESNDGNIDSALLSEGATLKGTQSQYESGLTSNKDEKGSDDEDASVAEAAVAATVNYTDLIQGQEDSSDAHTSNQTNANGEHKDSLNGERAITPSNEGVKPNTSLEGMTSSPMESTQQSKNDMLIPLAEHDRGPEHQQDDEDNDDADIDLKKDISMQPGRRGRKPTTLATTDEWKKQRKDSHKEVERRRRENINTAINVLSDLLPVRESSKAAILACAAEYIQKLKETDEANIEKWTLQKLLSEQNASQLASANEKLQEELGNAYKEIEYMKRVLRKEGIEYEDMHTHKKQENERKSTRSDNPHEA
Method: protein-binding microarray
Molecule type: double-stranded DNA, one strand shown
Medium: in vitro
Concentration: 0.8 µM
Setting: whole 60-bp probe, no competitor
Reading: higher = stronger binding
| Strand | fluorescence intensity |
| --- | --- |
| GAATTAATTAAGATCCATGTGAAGGTTCCAGAATAGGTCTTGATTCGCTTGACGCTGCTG | 631 a.u. |
| GAAGACGAGAGTAAGTGCGTGTCAATCTAGTTGTAGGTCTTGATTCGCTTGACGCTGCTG | 520 a.u. |
| CTAAGTAGAGAGAATCACGATCTAAATAATAATTTCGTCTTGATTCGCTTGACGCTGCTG | 626 a.u. |
| GAAACAGAGATTTTGAGCGTGATATTATTCCAATAGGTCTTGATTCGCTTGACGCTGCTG | 596 a.u. |
| GAATTCATACCTTATGTCACCATCTAACGCCTTTAGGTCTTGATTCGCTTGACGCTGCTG | 523 a.u. |
| GAAGGTGCCGTTTGTCACGTGGGACGGGATGCGTAGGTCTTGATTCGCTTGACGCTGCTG | 9490 a.u. |
| GAATTATTCTTTTTTCATATGATTTCTTATTTATAGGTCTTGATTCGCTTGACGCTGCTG | 511 a.u. |
| GAATTAGATCCTTGTCACATAATCATAAAAATATAGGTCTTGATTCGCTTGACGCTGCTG | 607 a.u. |

Set 3
Target: XBP1, bZIP domain (human)
Method: DHFR protein complementation
Medium: yeast
Setting: single substitutions, most at no-binding floor
Baseline: wild-type JUN-FOS pair
Reading: higher = stronger binding
Starting sequence: JUN, bZIP domain (human); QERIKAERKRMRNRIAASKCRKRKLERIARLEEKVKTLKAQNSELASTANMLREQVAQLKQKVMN; partner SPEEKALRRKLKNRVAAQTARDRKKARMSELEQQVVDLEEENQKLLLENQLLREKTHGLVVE
| Change | binding fitness |
| --- | --- |
| M51C | -1.03 natural log |
| L59T | -0.714 natural log |
| L52F | -1.5 natural log |
| Q41K | -0.812 natural log |
| A49K | -1.16 natural log |
| L38A | -1.56 natural log |
| L45A | -1.47 natural log |
| A40W | -1.36 natural log |

Set 4
Target: HLA class I histocompatibility antigen, A alpha chain, allele A*25:01 (Homo sapiens, UniProt P04439)
Observed: peptide-MHC binding
Molecule type: peptide
Concentration: concentration not given
| Sequence | binding |
| --- | --- |
| YRTLGVFRY | inactive |
| WPVMQWLTA | inactive |
| YRRKLTNPA | inactive |

Set 5
Target: CCNB3, cyclin fold, Cln2 fusion (human)
Method: yeast growth competition, sequencing
Medium: yeast
Setting: strong parent motif
Baseline: not given
Reading: higher = stronger binding
Starting sequence: viral docking peptide; YKVKRRLVFGADD; partner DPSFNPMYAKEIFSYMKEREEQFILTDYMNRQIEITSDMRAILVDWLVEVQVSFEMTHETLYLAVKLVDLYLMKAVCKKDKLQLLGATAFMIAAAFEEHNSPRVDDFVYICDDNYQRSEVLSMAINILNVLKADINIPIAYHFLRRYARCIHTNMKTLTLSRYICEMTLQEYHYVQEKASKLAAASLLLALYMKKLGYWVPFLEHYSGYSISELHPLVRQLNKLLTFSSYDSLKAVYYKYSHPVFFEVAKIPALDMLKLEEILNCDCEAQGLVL
| Change | normalised enrichment score |
| --- | --- |
| YKEKRRLVFGADD [V3E] | -0.0399 |
| YKVKRRLVFGAPD [D12P] | 1.82 |
| YKVKRRLVSGADD [F9S] | -0.0891 |
| YKQKRRLVFGADD [V3Q] | 0.323 |
| YKVKHRLVFGADD [R5H] | 0.14 |
| YMVKRRLVFGADD [K2M] | 2.16 |
| YKVKRRLVFGVDD [A11V] | 1.95 |
| YKVKRRLVFMADD [G10M] | 1.14 |
| YKVKRRLVFGTDD [A11T] | 2.37 |
| YKVKRSLVFGADD [R6S] | 0.695 |
| YKVKRRLVFGNDD [A11N] | 2.39 |
| YKVHRRLVFGADD [K4H] | 0.143 |
| YKVKRRLVPGADD [F9P] | -0.139 |
| YKVKRRLQFGADD [V8Q] | 1.58 |
| YKVKVRLVFGADD [R5V] | 0.905 |
| YKVKRRLCFGADD [V8C] | 1.46 |
| YKVKRRLVMGADD [F9M] | 0.285 |
| YLVKRRLVFGADD [K2L] | 2.24 |
| YKVKRRIVFGADD [L7I] | 0.329 |
| YKKKRRLVFGADD [V3K] | -0.382 |
| YKVKRRLVLGADD [F9L] | 0.363 |
| AKVKRRLVFGADD [Y1A] | 0.903 |
| YKVKRPLVFGADD [R6P] | 0.103 |
| YKVYRRLVFGADD [K4Y] | 0.714 |
| YKVKLRLVFGADD [R5L] | 0.114 |

Other studies, line by line
| SMILES | cell line | assay | system | conditions | scale | endpoint | value |
| --- | --- | --- | --- | --- | --- | --- | --- |
| CNNCc1ccc(C(=O)NC(C)C)cc1 | HEK-293T | pseudovirus infection, FDA-approved drug library counter-screen | VSV pseudotyped with VSV-G | 10 µM, 16 h | baseline: vehicle-treated | GFP-positive cells | 107% |
